Measured values from different studies.
Each line is one published result; not all experiments were run side by side. Values joined by “and” are separate records of one study, mostly repeats; a detail may differ. Numbers after ± are the reported error.

Compound = CCOc1cc([C@@H](CS(C)(=O)=O)N2C(=O)c3cccc(NC(C)=O)c3C2=O)ccc1O[C@@H]1O[C@H](C(=O)O)[C@@H](O)[C@H](O)[C@H]1O; test system = healthy human controls, plasma; conditions = oral, 30 mg apremilast, matched to severe impairment; half-life = 17.2 h
Compound = CCCC[C@H](NC(C)=O)C(=O)N[C@H]1CCC(=O)NC[C@@H](C(=O)N[C@@H](Cc2c[nH]c3ccccc23)C(N)=O)NC(=O)[C@H](CCCNC(=N)N)NC(=O)[C@@H](Cc2ccccc2)NC(=O)[C@H](Cc2c[nH]cn2)NC1=O; test system = healthy human, both sexes, plasma; conditions = subcutaneous, 1.0 mg once daily, day 7, median; half-life = 7.2 h
Compound = COc1cc2ncnc(Nc3ccc(F)c(Cl)c3)c2cc1OCCCN1CCOCC1; test system = human, plasma; conditions = oral, 250 mg, together with: vorinostat 400 mg; half-life = 25.2 ± 11.4 h
Compound = CCCCC1(CCCC)CN(c2ccccc2)c2cc(SC)c(OCC(=O)N[C@@H](C(=O)NCC(=O)O)c3ccccc3)cc2S(=O)(=O)C1; test = LC-MS/MS; test system = human, plasma; conditions = oral, 20 mg, single dose, fasted; half-life = 11.5 h
Compound = CN1CC[C@@H](NC(=O)Nc2ccc(C#N)cc2)C[C@@H]1c1nc2ccccc2[nH]1; test = measured: total compound; test system = human, moderate hepatic impairment, plasma; conditions = oral, 100 mg, fasted, single dose, arithmetic mean; half-life = 18.4 ± 3.5 h
Compound = O=C(NC[C@H](O)CO)c1ccncc1Nc1ccc(I)cc1F; test system = human; conditions = oral, 60 mg, single dose alone; half-life = 5.08 h
Compound = CNC(=O)c1c(C)oc2cc(Oc3ncnc4cc(OC)c(OC)cc34)ccc12; test system = human, plasma; conditions = oral, 5 mg, fasted, together with: rabeprazole 40 mg; half-life = 36.3 h
Compound = COC(=O)c1ccc2c(c1)NC(=O)/C2=C(\Nc1ccc(N(C)C(=O)CN2CCN(C)CC2)cc1)c1ccccc1; test system = human, hepatic impairment Child-Pugh B, plasma; conditions = oral, 100 mg single dose, geometric mean; half-life = 42.1 h
Compound = Cc1ccc(NC(=O)c2ccc(CN3CCN(C)CC3)cc2)cc1Nc1nccc(-c2cncc(-c3oncc3C)c2)n1; test system = older healthy human adults, plasma; conditions = oral, 12.5 mg single dose, fed, mean; half-life = 25 h
Compound = Cc1[nH]c2ccccc2c1CCNCc1ccc(/C=C/C(=O)NO)cc1; test system = human, plasma; conditions = oral, 20 mg, fed, normal breakfast; half-life = 15.7 h
Compound = CC[C@@H]1C(=O)N(C)c2cnc(Nc3ccc(C(=O)N[C@H]4CC[C@H](N5CCN(CC6CC6)CC5)CC4)cc3OC)nc2N1C(C)C; test system = human, plasma; conditions = intravenous infusion, 100 mg over 2 h, first infusion, geometric mean; half-life = 178 h
Compound = CCCC(CCC)C(=O)O; test = fluorescence polarization immunoassay, measured: total drug; test system = human, plasma; conditions = oral, 25 mg/kg/day, first dose; half-life = 11 ± 2.7 h
Compound = CN(C)C(=O)c1cc2cnc(Nc3ccc(N4CCNCC4)cn3)nc2n1C1CCCC1; test system = human, moderate renal impairment, plasma; conditions = oral, 400 mg, geometric mean; half-life = 50.2 h
Compound = CNc1nc(Nc2ccc(-n3cnc(C)n3)c(OC)c2)nc2c1CC[C@H]2c1ccc(F)cc1; test system = healthy humans, both sexes, plasma; conditions = oral, 300 mg single dose, high-fat meal; half-life = 28 h
Compound = O=C(c1cccnc1-c1ccncc1)N1CCC(O)(Cc2ccccc2)CC1; test system = healthy human, plasma; conditions = oral, 600 mg once daily, day 1, arithmetic mean; half-life = 4.83 h
Compound = O=C(/C=C/c1cccc(S(=O)(=O)Nc2ccccc2)c1)NO; test system = human, normal liver function, plasma; conditions = intravenous, 400 mg/m^2, 30 min infusion, single dose, mean; half-life = 1.97 h
Compound = CCS(=O)(=O)N1CC(CC#N)(n2cc(-c3ncnc4[nH]ccc34)cn2)C1; test system = healthy Chinese human, plasma; conditions = oral, 2 to 10 mg; half-life = 5.7 to 7.3 h
Compound = Cl.NCCc1c[nH]c(=S)n1[C@H]1COc2c(F)cc(F)cc2C1; test = mean; test system = human, male, plasma; conditions = oral, 200 mg, fed, high-fat high-calorie meal; half-life = 19.6 h
Compound = NC1(c2ccc(-c3nc4ccn5c(=O)[nH]nc5c4cc3-c3ccccc3)cc2)CCC1; test system = human; conditions = oral, 135 mg, expansion, together with: dinaciclib 9 mg/m^2; half-life = 63.4 ± 19.6 h
Compound = Nc1nc2c(c(=O)[nH]1)N(C=O)C(CNc1ccc(C(=O)N[C@@H](CCC(=O)O)C(=O)O)cc1)CN2 (stereo partly shown); test = measured: 5-formyltetrahydrofolate; test system = human, plasma; conditions = intravenous, 214 nmol; half-life = 0.593 h and 0.376 h and 0.262 h and 0.3 h
Compound = C[C@@H]1CCC[C@H](n2cnc(-c3cc(Cl)ccc3-n3cc(Cl)nn3)cc2=O)c2cc(ccn2)-c2c(cnn2C(F)F)NC1=O; test system = human; conditions = 200 mg twice daily, day 14; half-life = 11.8 h
Compound = O=CC[C@@H](O)[C@H](O)[C@H](O)CO; test = HPLC-fluorescence; test system = human patients, plasma; conditions = oral, 30 mg/kg/day, cycle 1; half-life = 4.5 ± 0.6 h
Compound = CN[C@@H]1COc2c(S(=O)(=O)NC(=O)Nc3c4c(cc5c3CCC5)CCC4)cnn2C1; test system = human; conditions = oral, 900 mg twice daily, day 7; half-life = 6.7 h
Compound = CC(C)(Sc1ccncc1-c1ccc(C#N)c2ccccc12)C(=O)O; test system = human; conditions = oral, 20 mg, together with: febuxostat 40 mg; half-life = 11.6 h
Compound = CN1C(=O)[C@@H](NC(=O)c2nnc(Cc3ccccc3)[nH]2)COc2ccccc21; test system = human male, plasma; conditions = oral, 120 mg twice daily, day 1; half-life = 2.13 h
Compound = O=c1[nH]c(=O)c(Cc2cccc(C(F)(F)F)c2)c([C@H]2CC[C@H](c3ccccc3)CC2)[nH]1; test system = human, fasted, plasma; conditions = oral, 100 mg single dose, geometric mean; half-life = 21.6 h
Compound = CCOc1ccc(Cc2cc([C@]34OC[C@](CO)(O3)[C@@H](O)[C@H](O)[C@H]4O)ccc2Cl)cc1; test system = human, type 2 diabetes, mild renal impairment, plasma; conditions = oral, 15 mg; half-life = 25.9 ± 14 h
Compound = CO[C@H]1C[C@@H]2CC[C@@H](C)[C@@](O)(O2)C(=O)C(=O)N2CCCC[C@H]2C(=O)O[C@H]([C@H](C)C[C@@H]2CC[C@@H](OC(=O)C(C)(CO)CO)[C@H](OC)C2)CC(=O)[C@H](C)/C=C(\C)[C@@H](O)[C@@H](OC)C(=O)[C@H](C)C[C@H](C)/C=C/C=C/C=C/1C; test system = human; conditions = intravenous, 60 mg/m^2 weekly, cycle 1, median, together with: valproic acid; half-life = 15.6 h
Compound = NC(=O)N1CCC(CC(=O)N2CCC([C@H]3c4ncc(Br)cc4CCc4cc(Cl)cc(Br)c43)CC2)CC1; test system = human, plasma; conditions = oral, 150 mg twice daily, cycle 1 day 15, multiple dose, together with: gemcitabine 750 mg/m2; half-life = 3.67 h
Compound = CNC(=O)c1ccc(-c2cnc3ncc(Cc4ccc5ncccc5c4)n3n2)cc1F; test system = healthy human subjects, plasma; conditions = oral, 400 mg, geometric mean, alone; half-life = 9.71 h
Compound = O=C(c1nc2n(n1)[C@H](c1ccccc1)C[C@@H]2F)C1CC1; test system = human, plasma; conditions = oral, 75 mg, single dose, high-fat meal, geometric mean; half-life = 13.3 h
Compound = COCCCCn1c(C(=O)N(CC(C)C)[C@@H]2CNC[C@H](C(=O)N3CCOCC3)C2)nc2ccccc21; test system = non-elderly human, plasma; conditions = oral, 160 mg once daily, day 7; half-life = 9.4 h
Compound = C=C(C)[C@@H]1CC[C@]2(NCCN3CCS(=O)(=O)CC3)CC[C@]3(C)[C@H](CC[C@@H]4[C@@]5(C)CC=C(C6=CC[C@@](CF)(C(=O)O)CC6)C(C)(C)[C@@H]5CC[C@]43C)[C@@H]12; test system = healthy human volunteers; conditions = oral, 200 mg, tablet, moderate-fat meal, geometric mean; half-life = 26.2 h
Compound = CCn1c(C(=O)c2cc(C)cc(C#N)c2)c(C(C)C)c(=O)[nH]c1=O; test system = healthy humans, plasma; conditions = oral, 75 mg once daily, 7 days; half-life = 22.1 ± 5.4 h

A few entries again:
Compound = Cc1ccc(NC(=O)c2ccc(CN3CCN(C)CC3)cc2)cc1Nc1nccc(-c2cncc(-c3oncc3C)c2)n1; test system = older healthy human adults, plasma; conditions = oral, 12.5 mg single dose, fed, mean; half-life = 25 h
Compound = Cc1[nH]c2ccccc2c1CCNCc1ccc(/C=C/C(=O)NO)cc1; test system = human, plasma; conditions = oral, 20 mg, fed, normal breakfast; half-life = 15.7 h
Compound = CC[C@@H]1C(=O)N(C)c2cnc(Nc3ccc(C(=O)N[C@H]4CC[C@H](N5CCN(CC6CC6)CC5)CC4)cc3OC)nc2N1C(C)C; test system = human, plasma; conditions = intravenous infusion, 100 mg over 2 h, first infusion, geometric mean; half-life = 178 h
Compound = CCCC(CCC)C(=O)O; test = fluorescence polarization immunoassay, measured: total drug; test system = human, plasma; conditions = oral, 25 mg/kg/day, first dose; half-life = 11 ± 2.7 h
Compound = CN(C)C(=O)c1cc2cnc(Nc3ccc(N4CCNCC4)cn3)nc2n1C1CCCC1; test system = human, moderate renal impairment, plasma; conditions = oral, 400 mg, geometric mean; half-life = 50.2 h
Compound = CNc1nc(Nc2ccc(-n3cnc(C)n3)c(OC)c2)nc2c1CC[C@H]2c1ccc(F)cc1; test system = healthy humans, both sexes, plasma; conditions = oral, 300 mg single dose, high-fat meal; half-life = 28 h
